Results collected from several papers.
Compare with care: the assays were run in different laboratories. Several values in a cell are separate wells, animals, samples, runs or records. ± marks the error that the study gave.
Nuclear receptor subfamily 2 group C member 2 ligand-binding domain: Nuclear receptor subfamily 2 group C member 2, ligand-binding domain (Homo sapiens, UniProt P49116)
Sequence of UniProt P49116 (whole entry, looked up): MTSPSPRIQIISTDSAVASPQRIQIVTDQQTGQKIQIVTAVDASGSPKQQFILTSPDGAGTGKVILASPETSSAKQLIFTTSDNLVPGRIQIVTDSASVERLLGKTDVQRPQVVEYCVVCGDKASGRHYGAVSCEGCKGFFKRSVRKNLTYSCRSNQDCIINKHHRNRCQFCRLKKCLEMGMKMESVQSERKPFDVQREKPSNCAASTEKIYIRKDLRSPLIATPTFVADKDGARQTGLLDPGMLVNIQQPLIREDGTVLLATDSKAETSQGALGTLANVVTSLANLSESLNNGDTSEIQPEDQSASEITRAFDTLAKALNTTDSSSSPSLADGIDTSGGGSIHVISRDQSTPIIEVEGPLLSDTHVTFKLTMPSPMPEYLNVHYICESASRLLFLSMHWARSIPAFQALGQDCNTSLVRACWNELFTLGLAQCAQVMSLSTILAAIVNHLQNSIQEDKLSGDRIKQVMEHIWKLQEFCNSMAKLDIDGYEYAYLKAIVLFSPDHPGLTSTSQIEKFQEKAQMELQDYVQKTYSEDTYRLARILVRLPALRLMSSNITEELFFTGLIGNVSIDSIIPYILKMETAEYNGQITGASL

| SMILES | target or system | test | setting | how to read | quantity | value |
| --- | --- | --- | --- | --- | --- | --- |
| Cc1cccc(-c2[nH]c(CNc3ccccc3F)nc2-c2ccc3ncnn3c2)n1 | pomalidomide-resistant MM1.S cells | XTT | 3.5 µM | higher = more viable cells | XTT absorbance | 0.6 E-1 and 0.8 E-1 and 1.1 E-1 |
| CCOC(=O)NCCCC(=O)NCCc1ccccc1 | OCI-Ly1 | – | 0.1 µM, 120 h | – | viability | 177% |
| O=C(C[C@@H](C(F)F)n1ccc(F)n1)N1CCC(O)(Cn2cnc3c(cnn3-c3ccc(F)cc3)c2=O)CC1 | CHP-212 resistant | annexin V/PI flow cytometry | 0.1 µM, 48 h | – | apoptotic cells | 12.7% |
| N#C/C(=C\c1ccc(-c2cc(Cl)ccc2Cl)o1)C(=O)Nc1cccc2ncccc12 | OCI-Ly1 | – | 0.1 µM, 120 h | – | viability | 88% |
| Cn1cc(-c2ccc(-c3cncc(Cl)c3N3CCC4(CCNC4=O)CC3)cc2)cn1 | COLO 205 | gene expression, microarray, item: ULBP1 mRNA | concentration not given, 6 h | baseline: untreated cells | log2 fold change | 1.29 |
| COc1cnc2cccc(N3CCc4c(cc(Cn5ccnc5C)cc4-c4cn(C)nc4C(F)(F)F)C3=O)c2c1 | OVSAHO | cell growth, inhibitor | 120 h | – | EC50 | > 30 µM |
| C=CC1=C(C)c2cc3[n-]c(cc4nc(cc5[n-]c(cc1n2)c(C)c5C=C)C(C)=C4CCC(=O)O)c(CCC(=O)O)c3C.[Zn+2] | SH-SY5Y | RNA-seq, item: PLAT mRNA | 5 µM, 5 h | baseline: untreated cells | fold change | 1.87 |
| CCc1cnc(N2CCC(c3nc(COc4ccc(-n5cnnn5)cc4)cs3)CC2)nc1 | HEK-293T | RNA-seq GSEA, item: Hallmark allograft rejection | concentration not given | direction not given | normalized enrichment score | -1.28 |
| C[C@H]1[C@H](C)CC[C@]2(C)CC[C@]3(C)C(=CC(=O)[C@@H]4[C@@]5(C)CC[C@@H](O)[C@](C)(C(=O)NCc6cn(-c7cccc(Br)c7)nn6)[C@@H]5CC[C@]43C)[C@H]12 | human PBMCs | flow cytometry | 10 µM | baseline: CD8+ T cells | PD-1 positive cells | 20.2% |
| CCn1cc(-c2cc(Cn3ccoc3=N)cc3c2CCN([C@@H](C)c2cc(OC)ccn2)C3=O)c(C(F)(F)F)n1 | SNU308 | cell growth | 120 h | – | EC50 | 0.0186 µM |
| COc1cc(/C=C/C(=O)N2CCC=CC2=O)cc(OC)c1OC | MDA-MB-468 | qRT-PCR, item: OSM-R | 30 µM, 6 h | baseline: time zero | mRNA expression | 92.4 ± 18% |
| COc1cc2ncnc(Nc3ccc(Oc4ccccc4)cc3C)c2cc1OC.O=C(O)C(F)(F)F | LoVo (KRAS G13D) | cell viability, resazurin | 3 µM, 72 h, together with: trametinib 0 nM | baseline: DMSO | average fractional effect | 36% |
| NC(=O)[C@H](CCCN=C(N)CCl)NC(=O)c1ccccc1 | OCI-Ly1 | – | 0.5 µM, 120 h | – | viability | 137% |
| Cn1nnc2c(C(N)=O)ncn2c1=O | Nuclear receptor subfamily 2 group C member 2 ligand-binding domain | SPR imaging | – | – | Kd | 0.0182 µM |
| O=C(Nc1nnc2n3c(=S)[nH][nH]c3nc(-c3ccc(Cl)cc3)c1-2)c1ccccc1 | 786-0 | NCI60 SRB | 10 µM | – | growth percent | 72.4% |
| [Cl-].[Cl-].[Ru+2].c1cnc2c(c1)ccc1cccnc12.c1cnc2c(c1)ccc1cccnc12.c1csc(-c2ccc(-c3ccc(-c4nc5c6cccnc6c6ncccc6c5[nH]4)s3)s2)c1 | SK-MEL-28 | resazurin viability | dark, normoxia | – | EC50 | 66.4 µM |
| Nc1ncnc2c1ncn2[C@@H]1C=C(CO)[C@@H](O)[C@H]1O | OCI-Ly1 | – | 0.5 µM, 120 h | – | viability | 2.84% |
| Nc1nccs1 | Nuclear receptor subfamily 2 group C member 2 ligand-binding domain | SPR imaging | – | – | Kd | 0.00139 µM |
| Cc1nc2cc(C(=O)c3ccc(F)cc3)ccc2[nH]1 | sample A patient iPSC-derived NPCs | MTS | 10 µM, 24 h | baseline: vehicle | viability | 110 ± 5.64% |
| O=C(/C=C/N1C[C@H]2C[C@@H]1CN2c1ccccn1)c1ccccc1O | OCI-Ly1 | – | 1 µM, 120 h | – | viability | 40.7% |
| CCn1c(=Cc2cccc[n+]2C)sc(=C2Sc3ccccc3N2C)c1=O.[Cl-] | iPSC-derived cardiomyocytes | concentration-response fit | concentration not given | baseline: vehicle | fitted top MyBP-C level | 110% |
| O=C([C@@H](Cc1cccc(C(F)(F)F)c1)NS(=O)(=O)c1cc(F)c2c(c1)CCNC2)N1CCCC1 | OCI-Ly1 | – | 0.1 µM, 120 h | – | viability | 117% |
| Cc1cc(Nc2ncc(Cl)c(Nc3ccccc3S(=O)(=O)C(C)C)n2)c(OC(C)C)cc1C1CCNCC1 | CLB-GE | phosphoproteomics LC-MS/MS, item: ASAP3 phosphorylation | 200 nM, 60 min | baseline: untreated | log2 fold change | -3.51 |
| Cc1cc(C)c(CNC(=O)c2cc(-c3ccc(CN4CCOCC4)cc3)cc3c2cnn3C2CCCC2)c(=O)[nH]1 | OCI-Ly1 | – | 0.5 µM, 120 h | – | viability | 163% |
| COc1cc(NC(C)CCCN)c2ncccc2c1 (stereo not shown) | iPSC-derived cardiomyocytes | concentration-response fit | – | baseline: vehicle | fitted bottom MyBP-C/MYH ratio | 0% |

Repeated from above:
| SMILES | target or system | test | setting | how to read | quantity | value |
| --- | --- | --- | --- | --- | --- | --- |
| COc1cc2ncnc(Nc3ccc(Oc4ccccc4)cc3C)c2cc1OC.O=C(O)C(F)(F)F | LoVo (KRAS G13D) | cell viability, resazurin | 3 µM, 72 h, together with: trametinib 0 nM | baseline: DMSO | average fractional effect | 36% |
| NC(=O)[C@H](CCCN=C(N)CCl)NC(=O)c1ccccc1 | OCI-Ly1 | – | 0.5 µM, 120 h | – | viability | 137% |
| Cn1nnc2c(C(N)=O)ncn2c1=O | Nuclear receptor subfamily 2 group C member 2 ligand-binding domain | SPR imaging | – | – | Kd | 0.0182 µM |
